Assay results pooled from the literature.
A part holds a random share of what one study measured.

Study 1
Target: Sal-like protein 4, full length isoform A (SALL4, Homo sapiens, UniProt Q9UJQ4, residues 1-1053)
Chain of UniProt Q9UJQ4 (whole entry, looked up): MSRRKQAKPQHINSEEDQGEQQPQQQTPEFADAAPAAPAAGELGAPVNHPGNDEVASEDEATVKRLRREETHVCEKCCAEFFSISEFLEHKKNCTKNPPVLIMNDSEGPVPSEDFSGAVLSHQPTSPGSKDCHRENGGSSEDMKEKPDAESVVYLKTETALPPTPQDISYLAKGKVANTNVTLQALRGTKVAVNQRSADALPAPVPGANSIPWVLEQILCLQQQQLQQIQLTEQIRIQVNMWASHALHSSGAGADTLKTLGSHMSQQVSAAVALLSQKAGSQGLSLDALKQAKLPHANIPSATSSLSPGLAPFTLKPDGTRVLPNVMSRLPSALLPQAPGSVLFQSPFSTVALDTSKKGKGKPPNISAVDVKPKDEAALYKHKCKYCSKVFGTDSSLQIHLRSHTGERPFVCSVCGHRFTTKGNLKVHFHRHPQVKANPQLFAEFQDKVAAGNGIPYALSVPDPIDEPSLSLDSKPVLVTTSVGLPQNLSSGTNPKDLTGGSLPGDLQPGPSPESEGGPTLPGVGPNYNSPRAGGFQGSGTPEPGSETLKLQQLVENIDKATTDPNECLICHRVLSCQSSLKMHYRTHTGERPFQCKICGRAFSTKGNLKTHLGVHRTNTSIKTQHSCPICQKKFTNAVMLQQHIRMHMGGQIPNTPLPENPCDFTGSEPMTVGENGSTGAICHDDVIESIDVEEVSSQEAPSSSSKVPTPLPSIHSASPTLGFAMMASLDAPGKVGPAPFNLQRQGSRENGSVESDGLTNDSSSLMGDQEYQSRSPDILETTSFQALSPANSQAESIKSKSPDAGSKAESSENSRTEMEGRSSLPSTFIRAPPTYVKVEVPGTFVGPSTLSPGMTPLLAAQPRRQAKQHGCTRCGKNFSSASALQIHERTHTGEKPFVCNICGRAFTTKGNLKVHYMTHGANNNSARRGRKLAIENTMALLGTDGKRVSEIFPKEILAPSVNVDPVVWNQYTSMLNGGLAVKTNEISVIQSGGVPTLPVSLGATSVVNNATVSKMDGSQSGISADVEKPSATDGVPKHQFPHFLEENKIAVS
Technique: universal PBM
Form: double-stranded DNA, one strand shown
Sample: in vitro
Concentration: 600 nM
Setting: 8-mer, flanks averaged, mean of replicates
Direction: higher = stronger binding
For `CACATTGA`, the E-score was 0.18.
The E-score of `AGTCGCCG` is reported as -0.286.
The E-score of `CGCGCCAA` is reported as -0.256.
`CGCCGTAC` gave an E-score of -0.192.
`TGAACCCA` has an E-score of -0.0686.
For `AGCTGTGG`, the E-score was -0.221.

Study 2
Target: RNA binding protein fox-1 homolog 2, RRM domain, GST-SBP tag (RBFOX2, Homo sapiens, UniProt O43251-10, residues 100-194)
Technique: RNA Bind-n-Seq
Form: RNA
Sample: in vitro
Concentration: 365 nM
Setting: natural RNA segment, single round, ends assumed
Relative to: no-protein control
Direction: higher = stronger binding
All sequences stand within: GGGAGUUCUACAGUCCGACGAUC … UGGAAUUCUCGGGUGCCAA
Target sequence (chain): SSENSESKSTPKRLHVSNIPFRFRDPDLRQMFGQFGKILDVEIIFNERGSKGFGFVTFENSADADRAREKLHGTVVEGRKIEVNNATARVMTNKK
Under “RBNS enrichment (R)”, `CCAGCAGCACCGUACCUCUGCCCUGUAAAAAUCAGACUCGGAACCGAUGUGUGCUUUAGGGAAUUUUAAGUUGCAUGCAUUUCAGAGACUUUAAGUCAGUUGGUUUUUAU` is recorded as 11.1.
`AUCAUUUAAAGUUGAAAGAAAAAUAUUUAUAUAUUUUAUGAACCACAAGGACACUUUAAAACCUUAGGAAUUAUAAAAAUGUCUUUGAUAUUAGAUACUCACAAUCAAAG` — result for “RBNS enrichment (R)”: 0.598.
Under “RBNS enrichment (R)”, `AAAGGGACCUAGUUUAGCCAUUGCCCUGGAGAUGAAAUUAAUGGAGGCUCAAGGAUAGAUGAGCUCUGAGUUUCUCAGUACUCCCUCAAGACUGGACAUCUUGGUCUUUU` is recorded as 0.708.
`AUUCAUAAAAGUUUGCAUGUGUUUUUAUUCUCUAGAUCUGUUACCAAUAUAGUUUUCUAACUCCUGUUUGGGGAGCAAGUGUUAAUAAUAACUUAUUCCUAAAGCUUGGU` — result for “RBNS enrichment (R)”: 42.2.
Under “RBNS enrichment (R)”, `ACCAAAUUGGCUUUACCAUCUUGGCUUUAGUAGGUAUAGAAGACAAUGGAUUACCAUCUUUAUUGCUGUAAUGUGUUAAGCAUUAUAUGCUAGUAGAAUCUAGUUUAAUU` is recorded as 0.309.
`UGGGAAAACUGUGUGUUAUAUUCUGUUGCAGGUAGUCUGGCUGUAUUUGGAAAGUUGCAAAGAAGGUAGAUUUGGGGGCAGGAAAAACAACCCUUUUCACAGUGUACUGU` — result for “RBNS enrichment (R)”: 0.649.
`AUAACAGGACCUUUAGUAAGCAUACUUUAAUCAGUUUUUCUCCUUGAAUUAAUCUUUUCUCUUAAUUUUUAUUAUGUACUAGUUGUAUUAAAGCUAAUGUGUUUACUUUU`: “RBNS enrichment (R)” 0.697.
For `UCUAAGGGGACGUUAUAAGUGAGCAGAAUAUCAGAAGACCAUGAAUAUGGCAAUUCAUAGUUGAGCUGUGUUGGCUUGAGGGAUGCUGCUGCUAAGUAGGGUGGACUGGG`, “RBNS enrichment (R)” read 0.572.

Study 3
Target: TAR DNA-binding protein 43, full length, His tag (TARDBP, Homo sapiens, UniProt Q13148, residues 1-414)
Technique: RNA Bind-n-Seq
Form: RNA
Sample: in vitro
Concentration: 20 nM
Setting: 6-mer, flanks averaged, single round
With: 150 mM LiCl
Relative to: input library
Direction: higher = stronger binding
`GCAGAA` — result for “6-mer enrichment (R)”: 0.915.
`UGGGAA` — result for “6-mer enrichment (R)”: 1.06.
`CACUGU`: “6-mer enrichment (R)” 0.924.
For `UUUCUG`, “6-mer enrichment (R)” read 1.07.
For `GAAUGA`, “6-mer enrichment (R)” read 1.12.
For `UGAACG`, “6-mer enrichment (R)” read 0.912.

Study 4
Molecule: PhoQ, residues 284 288 289 292 302 303 GNNTDL
Technique: Sort-seq
Measured: YFP reporter
Sample: E. coli
Setting: PhoQ-PhoP variant library
With: 10 µM Mg2+
Relative to: high Mg2+ state
Direction: higher = stronger signaling
The fold induction was 1.47 (PhoP, residues 12 14 15 18 19 TQALL (Escherichia coli, UniProt P23836)).
The fold induction was 2.16 (PhoP, residues 12 14 15 18 19 NYFRM (Escherichia coli, UniProt P23836)).
It gave 2.01 for fold induction (PhoP, residues 12 14 15 18 19 QYFSL (Escherichia coli, UniProt P23836)).

Repeated from above (study 2):
`AUAACAGGACCUUUAGUAAGCAUACUUUAAUCAGUUUUUCUCCUUGAAUUAAUCUUUUCUCUUAAUUUUUAUUAUGUACUAGUUGUAUUAAAGCUAAUGUGUUUACUUUU`: “RBNS enrichment (R)” 0.697.
For `UCUAAGGGGACGUUAUAAGUGAGCAGAAUAUCAGAAGACCAUGAAUAUGGCAAUUCAUAGUUGAGCUGUGUUGGCUUGAGGGAUGCUGCUGCUAAGUAGGGUGGACUGGG`, “RBNS enrichment (R)” read 0.572.
